{"data": "Assay results gathered from unrelated publications", "note": "Protocols differ between the studies behind these lines. Values joined by “and” are separate records of one study, mostly repeats; a detail may differ. Numbers after ± are the reported error.", "chain of UniProt O00311 (whole entry, looked up)": "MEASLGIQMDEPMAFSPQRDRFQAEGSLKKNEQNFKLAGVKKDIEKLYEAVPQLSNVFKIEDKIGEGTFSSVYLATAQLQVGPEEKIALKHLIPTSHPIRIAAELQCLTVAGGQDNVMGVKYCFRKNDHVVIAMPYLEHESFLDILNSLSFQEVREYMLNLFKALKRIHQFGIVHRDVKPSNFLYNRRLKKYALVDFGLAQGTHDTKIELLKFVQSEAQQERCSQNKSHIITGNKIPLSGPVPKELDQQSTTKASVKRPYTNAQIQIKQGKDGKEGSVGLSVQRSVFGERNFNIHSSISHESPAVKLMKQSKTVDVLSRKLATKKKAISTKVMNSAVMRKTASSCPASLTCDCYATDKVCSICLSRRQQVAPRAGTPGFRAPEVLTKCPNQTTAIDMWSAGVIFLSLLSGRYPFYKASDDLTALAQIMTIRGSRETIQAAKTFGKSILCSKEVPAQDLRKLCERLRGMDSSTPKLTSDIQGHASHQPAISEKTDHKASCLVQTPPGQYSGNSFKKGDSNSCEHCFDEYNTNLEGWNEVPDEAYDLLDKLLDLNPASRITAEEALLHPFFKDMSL"}
{"Structure (SMILES)": "CC(C)n1c(C2CCNCC2)nc2c([N+](=O)[O-])c(Br)c(Br)cc21", "test system": "patients with AML", "setting": "125 mg, febrile neutropenia", "measurement": "AE leading to interruption", "value": "6%"}
{"Structure (SMILES)": "CC(C)Nc1ccnc(Nc2cccc(-c3cccnc3)c2)n1", "test": "item: Creatinine", "test system": "mouse, blood", "setting": "intraperitoneal, 5 mg/kg", "measurement": "blood chemistry", "value": "0.24 mg/dL"}
{"Structure (SMILES)": "C[C@H]1CN(c2n[nH]c3nc(N[C@H]4CC[C@H](NS(=O)(=O)CCC(F)(F)F)CC4)ncc23)CCO1", "target or system": "CDC7 (Homo sapiens, UniProt O00311)", "test": "inhibitor, Kinobeads competition profiling", "setting": "0.16 µM", "how to read": "baseline: vehicle", "measurement": "relative abundance", "value": 1.03}
{"Structure (SMILES)": "Cn1cncc1-c1c(F)cncc1NC(=O)c1c(N)nn2cc(F)cnc12", "test system": "human patients", "setting": "oral, 220 mg once daily", "measurement": "grade ≥3 white cell decrease incidence", "value": "0%"}
{"Structure (SMILES)": "CC(C)[C@@H]1NC(=O)CNC(=O)[C@H](CC(N)=O)NC(=O)[C@H](CCCNC(=N)N)NC(=O)[C@H](Cc2ccc(O)cc2)NC(=O)[C@H](C(C)C)NC(=O)[C@@H](NC(=O)[C@@H](NC(=O)[C@H](CC(N)=O)NC(=O)[C@H](Cc2c[nH]c3ccccc23)NC(=O)[C@H](C)NC(=O)[C@H](Cc2ccccc2)NC(=O)CN)C(C)C)CSSC[C@@H](C(=O)N[C@@H](Cc2cnc[nH]2)C(=O)N[C@@H](CCCNC(=N)N)C(=O)N[C@@H](CCCNC(=N)N)C(=O)N[C@@H](C)C(=O)N[C@@H](CC(N)=O)C(N)=O)NC(=O)[C@H](C(C)C)NC(=O)[C@H](CCCNC(=N)N)NC1=O", "test system": "ICR mice, blood", "setting": "intraductal mammary, 10 mg/kg, day 5", "measurement": "mean platelet volume", "value": "6.43 ± 0.27 fL"}
{"Structure (SMILES)": "CO[C@H]1C[C@@H]2CC[C@@H](C)[C@@](O)(O2)C(=O)C(=O)N2CCCC[C@H]2C(=O)O[C@H]([C@H](C)C[C@@H]2CC[C@@H](OC(=O)NCCOCCOCCOCCOCCOCCOCCOCCOCCC(=O)N3CCc4cc(Cn5nc(-c6ccc7oc(N)nc7c6)c6c(N)ncnc65)ccc4C3)[C@H](OC)C2)C[C@@H](O)[C@H](C)/C=C(\\C)[C@@H](O)[C@@H](OC)C(=O)[C@H](C)C[C@H](C)/C=C/C=C/C=C/1C", "test": "dose-escalation trial", "test system": "patients with advanced solid tumours", "setting": "intravenous, all doses weekly, grade ≥3", "measurement": "decreased appetite leading to dose reduction", "value": "0%"}
{"Structure (SMILES)": "CC[C@H](C)[C@H](NC(=O)[C@H](Cc1ccccc1)NC(=O)[C@H](CCC(=O)O)NC(=O)[C@H](CCCNC(=N)N)NC(=O)[C@H](C)NC(=O)[C@H](C)NC(=O)[C@H](CCC(N)=O)NC(=O)[C@H](CCC(=O)O)NC(=O)[C@H](CCC(=O)O)NC(=O)[C@H](CC(C)C)NC(=O)[C@H](Cc1ccc(O)cc1)NC(=O)[C@H](CO)NC(=O)[C@H](CO)NC(=O)[C@@H](NC(=O)[C@H](CC(=O)O)NC(=O)[C@H](CO)NC(=O)[C@@H](NC(=O)[C@H](Cc1ccccc1)NC(=O)[C@@H](NC(=O)CNC(=O)[C@H](CCC(=O)O)NC(=O)[C@H](C)NC(=O)CCc1cnc[nH]1)[C@@H](C)O)[C@@H](C)O)C(C)C)C(=O)N[C@@H](C)C(=O)N[C@@H](Cc1c[nH]c2ccccc12)C(=O)N[C@@H](CC(C)C)C(=O)N[C@H](C(=O)N[C@@H](CCCNC(=N)N)C(=O)NCC(=O)N[C@@H](CCCNC(=N)N)C(=O)N[C@@H](CCCCNC(=O)COCCOCCNC(=O)COCCOCCNC(=O)CC[C@H](NC(=O)CCCCCCCCCCCCCCCCC(=O)O)C(=O)O)C(=O)NCC(=O)NCC(=O)N[C@@H](CO)C(=O)N[C@@H](CCCCNC(=O)[C@H](CCCCNC(=O)[C@H](CCCCNc1c(NCCCCCN(O)C(=O)CCC(=O)NCCCCCN(O)C(=O)CCC(=O)NCCCCCN(O)C(C)=O)c(=O)c1=O)Nc1c(NCCCCCN(O)C(=O)CCC(=O)NCCCCCN(O)C(=O)CCC(=O)NCCCCCN(O)C(C)=O)c(=O)c1=O)NC(=O)[C@H](CCCCNc1c(NCCCCCN(O)C(=O)CCC(=O)NCCCCCN(O)C(=O)CCC(=O)NCCCCCN(O)C(C)=O)c(=O)c1=O)Nc1c(NCCCCCN(O)C(=O)CCC(=O)NCCCCCN(O)C(=O)CCC(=O)NCCCCCN(O)C(C)=O)c(=O)c1=O)C(=O)O)C(C)C [zirconium-89 labelled]", "test": "ex vivo gamma counting", "test system": "Sprague-Dawley rat, male, muscle", "setting": "intravenous, 1 nmol, 24 h", "measurement": "tissue uptake", "value": "0.107 %ID/g and 0.122 %ID/g and 0.103 %ID/g and 0.119 %ID/g and 0.124 %ID/g"}
{"Structure (SMILES)": "CN1CC[C@@H](c2c(O)cc(O)c3c(=O)cc(-c4ccc(C(F)(F)F)cc4Cl)oc23)[C@@H]1CO", "test": "item: urinary incontinence", "test system": "B-cell malignancies or AML", "setting": "oral, 50 mg, grade 3 to 4, continuous dosing", "measurement": "patients with adverse event", "value": "0%"}
{"Structure (SMILES)": "C[C@@H](NC(=O)N1C(=O)[C@H](Cc2ccnc(N)c2)[C@H]1C(=O)O)C1CCCCC1", "test system": "healthy Chinese adults", "setting": "continuous intravenous infusion, 1.5 mg/kg/h, 5.0 days", "measurement": "related decreased WBC", "value": "0%"}
{"Structure (SMILES)": "C=CC(=O)Nc1cc(Nc2nccc(Nc3cc(Cl)c(F)cc3C(C)(C)O)n2)c(OC)cc1N1CC[C@@H](N(C)C)C1", "test system": "human", "setting": "oral, dose not given", "measurement": "amylase increased TEAE", "value": "13.7%"}
{"Structure (SMILES)": "C[C@]1(CO)Cc2ncn(-c3ccc(C#N)c(Cl)c3)c2C(=O)O1", "test system": "human, Chinese, plasma", "setting": "60 mg single dose, geometric mean", "measurement": "half-life", "value": "5.3 h"}
{"Structure (SMILES)": "O=C(Nc1ccccc1)C1CCN(C(=O)Oc2cccnc2)CC1", "test": "adverse event reporting", "test system": "healthy women", "setting": "oral, 20 mg, 7 days", "measurement": "subjects with decreased appetite", "value": "0%"}
{"Structure (SMILES)": "CC(=O)c1c(C)c2cnc(Nc3ccc(C4CCN(CCS(C)(=O)=O)CC4)cn3)nc2n(C2CCCC2)c1=O", "test system": "HR+/HER2- advanced breast cancer patients", "setting": "oral, 150 mg", "measurement": "patients with serious AE", "value": "33.3%"}
{"Structure (SMILES)": "CCCC(CCC)NC(=O)c1ccc2c(c1)OCO2", "test system": "Swiss albino CD-1 mice, male, bone marrow", "setting": "intraperitoneal, 700 mg/kg, 36 h", "measurement": "micronucleated PCEs", "value": "0.1%"}
{"Structure (SMILES)": "CN(C(=O)n1cnc(-c2ccc[n+]([O-])c2)c1)C1CCCCC1", "test system": "Wistar rat, hippocampus", "setting": "oral, 10 mg/kg/day, 48 h, repeated 5 days", "measurement": "concentration", "value": "10 ± 1.3 ng/g"}
{"Structure (SMILES)": "C[C@@H]1COCCN1c1cc(C2([S@](C)(=N)=O)CC2)nc(-c2cc[nH]c3nccc2-3)n1", "test system": "patients, advanced solid tumours", "setting": "oral, 40 mg twice daily, 10 days, with: carboplatin", "measurement": "discontinuation due to adverse event", "value": "0 % patients"}
{"Structure (SMILES)": "COc1ccnc(C(=O)N[C@H]2COC(=O)[C@H](Cc3ccccc3)[C@@H](OC(=O)C(C)C)[C@H](C)OC2=O)c1OCOC(=O)C(C)C", "test": "total length", "test system": "Pimephales promelas, flow-through water", "setting": "32 days", "measurement": "EC10", "value": "0.91 ng/mL"}
{"Structure (SMILES)": "C=CC(=O)N1CC[C@H](n2nc(C#Cc3cc(OC)cc(OC)c3)c3c(N)ncnc32)C1", "test system": "human patients", "setting": "oral, dose not given, QD regimen, adverse drug reaction, with: ferric citrate hydrate", "measurement": "hyponatremia incidence, grade ≥3", "value": "0%"}
{"Structure (SMILES)": "C[C@]1(O)C[C@@](N)(c2ccc(-c3nc4n(c3-c3ccccc3)COc3ccncc3-4)cc2)C1", "test system": "human, advanced or metastatic solid tumours", "setting": "once daily, dose escalation total, any grade", "measurement": "patients with Anemia TEAE", "value": "33.3%"}
{"Structure (SMILES)": "O=S(=O)(Nc1ccccc1)c1ccc(NC(=S)Nc2ccccc2)cc1", "test": "item: CK", "test system": "female mouse, blood", "setting": "oral, 20 mg/kg daily, 14 days", "measurement": "serum enzyme activity", "value": "3280 U/L"}
{"Structure (SMILES)": "NC(=O)[C@H]1CCN(c2ncnc(N)c2F)C[C@@H]1N1CCC[C@@H](Nc2cc(Cl)cc(C(F)(F)F)c2)C1=O", "test system": "B-cell malignancy patients", "setting": "oral, 328 mg twice daily, dose", "measurement": "grade ≥3 anaemia", "value": "0%"}
{"Structure (SMILES)": "CCCCNC(=O)C1CCCN(Cc2nc(-c3ccc(Cl)cc3)oc2C)C1 (centres unmarked)", "target or system": "Vero-E6", "test": "CellTiter-Glo ATP", "setting": "concentration not given, 72 h, retest 8-point duplicates", "how to read": "baseline: DMSO 0%, hyamine -100%, more negative, more toxic", "measurement": "cytotoxicity efficacy", "value": "-27.6%"}
{"Structure (SMILES)": "COc1cc2nccc(Oc3ccc(NC(=O)c4cc5c(n(-c6ccccc6)c4=O)CCCC5=O)nc3)c2cc1OC", "test system": "relapsed/refractory AML patients", "setting": "oral, 3 mg once daily", "measurement": "fatal drug-related TEAEs", "value": "0%"}
{"Structure (SMILES)": "COc1ccc(-c2c(-c3ccc(C#N)c(F)c3)nc(N3CCC(N)CC3)n(C)c2=O)cc1F", "test": "item: Hyperglycemia", "test system": "human patients", "setting": "oral, 60 mg, dose expansion", "measurement": "serious adverse event incidence", "value": "0%"}
{"Structure (SMILES)": "O=C1Nc2cc3[nH]nc(-c4ccncc4)c3cc2CN1Cc1ccccc1", "test": "item: infusion-related reaction", "test system": "patients with advanced solid tumours", "setting": "intravenous, dose not given", "measurement": "patients with grade ≥3 TEAE", "value": "7%"}
{"Structure (SMILES)": "Oc1cc(Cl)c(-c2ccc(Cl)cc2Cl)c(Cl)c1O", "test": "metabolism, GC-MS", "test system": "female beagle dog liver microsomes", "setting": "50 µM, 2 h, 37 °C", "measurement": "metabolite formation", "value": "not detected"}
{"Structure (SMILES)": "COc1cc2c(Oc3ccc4[nH]c(C)cc4c3F)ccnc2cc1OCC1(N)CC1", "test system": "paediatric recurrent refractory sarcoma", "setting": "8 mg", "measurement": "grade 3 sinus arrhythmia", "value": "0%"}
{"Structure (SMILES)": "CCCCCCCCCCCCCCCC(=O)N[C@@H](CCC(=O)NCCCC[C@H](NC(=O)[C@H](CC(=O)O)NC(=O)[C@H](CO)NC(=O)[C@@H](NC(=O)[C@H](Cc1ccccc1)NC(=O)[C@@H](NC(=O)CNC(=O)[C@H](CCC(N)=O)NC(=O)[C@H](CO)NC(=O)[C@@H](N)Cc1c[nH]cn1)[C@@H](C)O)[C@@H](C)O)C(=O)N[C@@H](CO)C(=O)N[C@@H](CCC(=O)O)C(=O)N[C@@H](Cc1ccc(O)cc1)C(=O)N[C@@H](CC(C)C)C(=O)N[C@@H](CC(=O)O)C(=O)N[C@@H](CO)C(=O)N[C@@H](CCC(=O)O)C(=O)N[C@@H](CCCNC(=N)N)C(=O)N[C@@H](C)C(=O)N[C@@H](CCCNC(=N)N)C(=O)N[C@@H](CC(=O)O)C(=O)N[C@@H](Cc1ccccc1)C(=O)N[C@H](C(=O)N[C@@H](C)C(=O)N[C@@H](Cc1c[nH]c2ccccc12)C(=O)N[C@@H](CC(C)C)C(=O)N[C@@H](CCC(=O)O)C(=O)N[C@@H](C)C(=O)NCC(=O)NCC(=O)O)C(C)C)C(=O)O", "test": "item: Hyperglycaemia", "test system": "humans CrCl at least 90 mL/min", "setting": "subcutaneous, 100 µg single dose", "measurement": "treatment-related adverse events", "value": "0%"}
{"Structure (SMILES)": "C[C@H]1C[C@@H](N2C(=N)N[C@](C)(c3cccc(NC(=O)c4cccc(C#N)c4)c3Cl)CC2=O)CCO1", "test system": "rat", "setting": "250 mg/kg, every other day", "measurement": "triglycerides change", "value": "-28%"}
{"Structure (SMILES)": "C=CCNc1c(O)cc2c(O)c1C[C@@H](C)C[C@H](OC)[C@H](O)[C@@H](C)/C=C(\\C)[C@H](OC(N)=O)[C@@H](OC)/C=C\\C=C(/C)C(=O)N2", "test system": "unresectable or metastatic STS, GIST, other", "setting": "intravenous, 500 mg/m^2", "measurement": "patients with infusion site pain", "value": "43%"}
{"Structure (SMILES)": "Cc1ccc(-c2cccc(CN3CCCC(NC(=O)c4c(C)noc4C)C3)c2)cc1Cl (centres unmarked)", "target or system": "Vero-E6", "test": "CellTiter-Glo ATP", "setting": "72 h, first round 5-point", "how to read": "baseline: DMSO 0%, hyamine -100%, more negative, more toxic", "measurement": "maximum response", "value": "-2.44%"}
{"Structure (SMILES)": "CCC[C@@](N)(CO)CCc1ccc(OCCCCCC(C)C)cc1", "test system": "hound dogs, male", "setting": "intravenous, 0.25 mg/kg, geometric mean", "measurement": "clearance", "value": "25.9 mL/min/kg"}
